# Results gathered from unrelated publications.
# Each line is one published result; not all experiments were run side by side. Values joined by “and” are separate records of one study, mostly repeats; a detail may differ. Numbers after ± are the reported error.
# UniProt Q9UM07, sequence (whole entry, looked up): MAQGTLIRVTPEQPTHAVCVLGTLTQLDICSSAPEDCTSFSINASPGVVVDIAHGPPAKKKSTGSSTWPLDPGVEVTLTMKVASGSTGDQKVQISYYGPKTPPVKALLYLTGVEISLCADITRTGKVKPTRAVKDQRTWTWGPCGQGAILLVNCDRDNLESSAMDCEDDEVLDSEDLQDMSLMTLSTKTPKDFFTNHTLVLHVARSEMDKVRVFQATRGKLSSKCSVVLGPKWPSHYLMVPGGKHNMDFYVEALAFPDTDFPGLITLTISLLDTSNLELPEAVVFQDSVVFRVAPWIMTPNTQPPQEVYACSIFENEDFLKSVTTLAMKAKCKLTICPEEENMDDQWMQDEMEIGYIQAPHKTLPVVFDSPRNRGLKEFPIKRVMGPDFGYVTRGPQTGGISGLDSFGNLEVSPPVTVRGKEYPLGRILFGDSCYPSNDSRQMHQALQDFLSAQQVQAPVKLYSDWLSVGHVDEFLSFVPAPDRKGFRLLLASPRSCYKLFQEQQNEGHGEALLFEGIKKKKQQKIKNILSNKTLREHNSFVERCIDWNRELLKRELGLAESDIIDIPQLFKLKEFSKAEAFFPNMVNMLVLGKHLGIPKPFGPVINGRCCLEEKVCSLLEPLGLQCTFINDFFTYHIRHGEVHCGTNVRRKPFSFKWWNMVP
# UniProt Q01959, sequence (whole entry, looked up): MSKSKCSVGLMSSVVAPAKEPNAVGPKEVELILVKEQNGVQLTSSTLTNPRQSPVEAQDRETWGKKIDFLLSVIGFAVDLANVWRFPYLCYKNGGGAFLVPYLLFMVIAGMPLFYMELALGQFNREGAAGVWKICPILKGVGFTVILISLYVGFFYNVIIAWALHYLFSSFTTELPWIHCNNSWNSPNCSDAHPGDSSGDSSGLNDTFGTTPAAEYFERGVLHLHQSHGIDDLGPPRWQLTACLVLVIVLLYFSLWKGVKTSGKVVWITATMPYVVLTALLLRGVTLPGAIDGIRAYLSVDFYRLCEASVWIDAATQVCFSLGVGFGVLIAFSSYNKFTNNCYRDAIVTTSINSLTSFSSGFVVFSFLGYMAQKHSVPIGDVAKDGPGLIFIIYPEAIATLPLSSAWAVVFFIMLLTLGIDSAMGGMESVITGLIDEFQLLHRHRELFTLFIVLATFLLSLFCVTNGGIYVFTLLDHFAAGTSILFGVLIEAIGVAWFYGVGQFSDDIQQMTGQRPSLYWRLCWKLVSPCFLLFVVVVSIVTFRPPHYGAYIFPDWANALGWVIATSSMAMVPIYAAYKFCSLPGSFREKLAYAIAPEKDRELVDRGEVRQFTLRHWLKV
# UniProt O14578, sequence (whole entry, looked up): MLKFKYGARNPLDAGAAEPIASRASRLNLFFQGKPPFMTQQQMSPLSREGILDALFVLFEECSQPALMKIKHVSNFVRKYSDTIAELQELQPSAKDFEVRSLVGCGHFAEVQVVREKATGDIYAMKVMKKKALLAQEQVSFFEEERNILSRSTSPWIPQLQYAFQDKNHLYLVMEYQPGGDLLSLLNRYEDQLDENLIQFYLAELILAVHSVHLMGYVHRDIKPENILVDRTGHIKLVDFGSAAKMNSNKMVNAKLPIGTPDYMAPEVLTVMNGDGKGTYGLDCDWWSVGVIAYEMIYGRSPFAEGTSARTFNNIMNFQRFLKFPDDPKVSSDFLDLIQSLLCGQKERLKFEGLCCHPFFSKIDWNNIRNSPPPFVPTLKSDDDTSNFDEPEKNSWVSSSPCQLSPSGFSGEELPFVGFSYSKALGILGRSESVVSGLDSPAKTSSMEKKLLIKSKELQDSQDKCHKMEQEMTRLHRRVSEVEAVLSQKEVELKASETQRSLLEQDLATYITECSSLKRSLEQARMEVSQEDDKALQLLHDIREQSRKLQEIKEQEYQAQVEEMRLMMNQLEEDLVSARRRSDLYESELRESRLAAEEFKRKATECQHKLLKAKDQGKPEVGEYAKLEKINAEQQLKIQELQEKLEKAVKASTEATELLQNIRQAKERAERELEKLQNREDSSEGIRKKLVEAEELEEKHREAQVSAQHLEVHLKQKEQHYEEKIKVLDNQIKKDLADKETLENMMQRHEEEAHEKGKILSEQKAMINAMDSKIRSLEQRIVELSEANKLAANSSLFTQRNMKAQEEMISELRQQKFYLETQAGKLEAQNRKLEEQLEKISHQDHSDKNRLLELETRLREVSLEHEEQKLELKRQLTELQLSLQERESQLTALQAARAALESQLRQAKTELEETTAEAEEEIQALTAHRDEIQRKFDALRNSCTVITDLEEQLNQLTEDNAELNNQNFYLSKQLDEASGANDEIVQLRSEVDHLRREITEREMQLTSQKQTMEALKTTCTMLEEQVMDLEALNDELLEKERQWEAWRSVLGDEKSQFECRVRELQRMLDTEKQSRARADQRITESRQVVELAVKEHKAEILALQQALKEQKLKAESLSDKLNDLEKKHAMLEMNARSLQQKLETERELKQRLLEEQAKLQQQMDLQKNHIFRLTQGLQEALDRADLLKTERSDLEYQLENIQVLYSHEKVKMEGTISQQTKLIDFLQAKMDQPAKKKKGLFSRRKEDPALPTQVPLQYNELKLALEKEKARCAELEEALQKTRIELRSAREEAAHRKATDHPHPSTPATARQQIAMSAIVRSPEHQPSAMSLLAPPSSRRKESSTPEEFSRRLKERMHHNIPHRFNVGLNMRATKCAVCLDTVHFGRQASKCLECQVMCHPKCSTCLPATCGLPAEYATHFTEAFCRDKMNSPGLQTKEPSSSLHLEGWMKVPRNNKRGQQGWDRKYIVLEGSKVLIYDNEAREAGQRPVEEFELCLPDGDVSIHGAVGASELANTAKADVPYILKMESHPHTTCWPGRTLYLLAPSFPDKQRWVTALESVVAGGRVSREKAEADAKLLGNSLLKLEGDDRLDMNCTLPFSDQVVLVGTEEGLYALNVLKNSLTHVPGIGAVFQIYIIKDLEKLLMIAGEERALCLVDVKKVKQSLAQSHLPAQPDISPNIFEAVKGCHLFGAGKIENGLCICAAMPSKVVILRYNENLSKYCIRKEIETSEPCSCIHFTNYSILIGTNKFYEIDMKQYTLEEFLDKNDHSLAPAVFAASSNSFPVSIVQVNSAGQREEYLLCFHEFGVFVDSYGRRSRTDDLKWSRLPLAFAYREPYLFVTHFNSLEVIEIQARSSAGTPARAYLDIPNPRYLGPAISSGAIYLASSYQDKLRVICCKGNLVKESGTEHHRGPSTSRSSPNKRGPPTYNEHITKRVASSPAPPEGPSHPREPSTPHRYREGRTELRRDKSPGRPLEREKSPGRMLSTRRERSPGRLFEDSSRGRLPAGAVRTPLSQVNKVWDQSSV
# UniProt P34969, sequence (whole entry, looked up): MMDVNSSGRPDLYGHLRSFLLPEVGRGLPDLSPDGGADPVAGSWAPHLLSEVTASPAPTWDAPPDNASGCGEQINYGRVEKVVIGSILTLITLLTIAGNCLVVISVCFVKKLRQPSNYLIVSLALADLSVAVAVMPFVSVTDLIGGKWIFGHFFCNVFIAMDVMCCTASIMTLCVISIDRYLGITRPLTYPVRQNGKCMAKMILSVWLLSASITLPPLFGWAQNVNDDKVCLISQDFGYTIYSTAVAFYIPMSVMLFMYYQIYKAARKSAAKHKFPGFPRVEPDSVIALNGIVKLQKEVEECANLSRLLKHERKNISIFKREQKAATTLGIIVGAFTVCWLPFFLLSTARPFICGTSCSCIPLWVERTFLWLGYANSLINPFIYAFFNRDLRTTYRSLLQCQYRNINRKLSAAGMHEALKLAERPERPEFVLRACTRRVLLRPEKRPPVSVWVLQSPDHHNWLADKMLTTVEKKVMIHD
# UniProt P21554, sequence (whole entry, unmodified, looked up): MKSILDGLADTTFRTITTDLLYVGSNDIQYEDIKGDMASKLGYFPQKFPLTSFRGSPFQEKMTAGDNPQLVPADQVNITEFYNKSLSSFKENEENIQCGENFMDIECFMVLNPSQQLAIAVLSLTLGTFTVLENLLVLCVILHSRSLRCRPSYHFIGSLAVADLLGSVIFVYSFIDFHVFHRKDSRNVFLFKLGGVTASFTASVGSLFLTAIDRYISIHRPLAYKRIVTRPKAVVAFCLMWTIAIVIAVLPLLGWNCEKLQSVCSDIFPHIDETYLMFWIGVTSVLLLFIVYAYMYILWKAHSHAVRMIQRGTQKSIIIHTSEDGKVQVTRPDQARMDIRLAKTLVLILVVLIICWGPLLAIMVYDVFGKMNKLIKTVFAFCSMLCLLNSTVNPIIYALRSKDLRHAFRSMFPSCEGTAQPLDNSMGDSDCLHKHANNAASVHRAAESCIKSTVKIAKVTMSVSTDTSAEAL
SMILES,tested on,assay,system,setting,how to read,endpoint,value
CC(C)CC(C(=O)N1CC2(CC1C#N)C(=O)Nc1ccccc12)N(C)C(=O)c1cc2c(F)cc(F)c(F)c2[nH]1 (centres unmarked),"Replicase polyprotein 1ab, main protease (rep, Porcine epidemic diarrhea virus, UniProt P0C6Y4)","protease activity, inhibitor",,3162.56 µM,,remaining activity,0%
O=C1NC(=O)c2c1c1cc(F)c[n+]3c1c1c2c2cc(O)ccc2[n]1[Ru-4]312([N]=C=S)[S+]3CC[S+]1CC[S+]2CC3 (centres unmarked),"PTK6 (Homo sapiens, UniProt Q13882)",enzyme activity,,"100 nM, human enzyme, with: 10 µM ATP",baseline: untreated,remaining activity,110%
CS(C)(=O)=Nc1ccc(-c2ccc(-c3nc4cc(O[C@@H]5CO[C@H]6[C@@H]5OC[C@H]6O)[nH]c4cc3F)cc2)cc1,"GABBR1 (Homo sapiens, UniProt Q9UBS5)","agonist response, agonist",,10 µM,baseline: control agonist,activity,19.7%
CC(C)[C@H]1NC(=O)C[C@H]2/C=C/CCSSC[C@@H](NC1=O)C(=O)N[C@H](Cc1cccc3ccccc13)C(=O)NCC(=O)O2,"CIT (Homo sapiens, UniProt O14578)","enzyme activity, inhibitor",,10 µM,,inhibition,-5.1%
CCOCC1C(c2ccc(Cl)c(Cl)c2)CC2CCC1N2C (centres unmarked),"SLC6A3 (Homo sapiens, UniProt Q01959)",dopamine uptake,,"0.001 µM, 0.03333 h, with: [3H]dopamine",baseline: no inhibitor,remaining activity,40%
Cc1ccc2c(C(C[N+](=O)[O-])c3cccs3)c(-c3ccccc3)[nH]c2c1 (centres unmarked),"CNR1 (Homo sapiens, UniProt P21554, I245A)","β-arrestin recruitment, agonist, luciferase",,,,Emax,63.8%
Cc1sc2c(c1C)C(c1ccc(Cl)cc1)=NC(CC(=O)OC(C)(C)C)c1nnc(C)n1-2 (centres unmarked),"HTR7 (Homo sapiens, UniProt P34969)","ligand displacement, radioligand",,1 µM,,inhibition,-12%
O=C1NC2(CC2)COc2ncc(F)cc2[C@H]2COCCN2c2ccn3ncc1c3n2,,,"Sprague-Dawley rat, male, blood","oral, 10 mg/kg/day, 4 weeks, end of recovery, subacute toxicity",,lymphocyte percentage,84.8 ± 2.7%
Nc1ccc(/C=C/C(=O)N2CCc3c(oc4c(-c5ccc(F)cc5)cc(-c5ccc(C(=O)N6CCC(F)(F)CC6)cn5)cc34)C2)cn1,"SRC (Homo sapiens, UniProt P12931)","binding, competition with immobilised ligand",,1 µM,,remaining binding,100%
CN(C)[C@H]1C[C@@]23CC[C@@]4(O2)C(=CC[C@]2(C)[C@@H](c5ccc6ccncc6c5)CC[C@H]24)C=C3[C@@H](O)[C@@H]1O,"MAP3K21 (Homo sapiens, UniProt Q5TCX8)","ATP probe labelling, inhibitor, KiNativ profiling",,0.1 µM,,inhibition,14.9%
N[C@H](C(=O)N1CCCC1)C1CCN(c2nccc3c(-c4ncc(Cl)cc4Cl)cccc23)CC1,"PADI4 (Homo sapiens, UniProt Q9UM07)",thermal shift,,0.9507 µM,,melting temperature,56.5 °C and 57 °C
